# Published values collected from several papers.
# Protocols differ between the studies behind these lines.
# UCHL1: Ubiquitin carboxyl-terminal hydrolase isozyme L1 (UCHL1, Homo sapiens, UniProt P09936)
# Chain of UniProt P09936 (whole entry, looked up): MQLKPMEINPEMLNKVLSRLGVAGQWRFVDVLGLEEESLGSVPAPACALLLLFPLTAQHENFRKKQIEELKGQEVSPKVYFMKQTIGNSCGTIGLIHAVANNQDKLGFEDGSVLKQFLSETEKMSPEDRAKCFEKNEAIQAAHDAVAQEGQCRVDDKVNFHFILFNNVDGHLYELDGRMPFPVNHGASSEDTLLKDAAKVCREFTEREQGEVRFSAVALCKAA
SMILES,target or system,test,test system,conditions,how to read,endpoint,value
C[C@@H](Nc1cc(F)cc(F)c1)c1cc(C(=O)N(C)C)cc2c(=O)cc(N3CCOCC3)oc12,,refers to: Fatigue,advanced solid tumour patients,"oral, dose not given, dose expansion",,patients discontinuing for AE,0%
NC(=O)N1c2ccccc2C=Cc2ccccc21,,,male patients,"oral, dose not given, treatment-related adverse events",,patients with Flatulence,0%
O=C(Nc1nc2cccc(-c3ccc(CN4CCS(=O)(=O)CC4)cc3)n2n1)C1CC1,,,rheumatoid arthritis patients,"oral, 100 mg twice daily, 4 weeks, regardless of relatedness",,patients with blood disorders,0%
Cc1ccccc1NC(=O)C(C#N)=Cc1cccc2ccccc12,UCHL1,"covalent, intact protein LC-MS",,12.5 µM,,labelling,10.5%
C=CC(=O)NC1CCN(c2ncc3ncnc(Nc4ccc(Oc5ccc6c(c5)ncn6C)c(C)c4)c3n2)CC1,,,male patients,"oral, dose not given, treatment-related adverse events",,patients with Pruritus,0%
COc1cc(Nc2ncc3c(n2)-c2ccc(Cl)cc2C(c2c(F)cccc2OC)=NC3)ccc1C(=O)O,,"refers to: Hypotension, all grades","cancer patients, phase 1/2","oral, dose not given, with: pembrolizumab",,patients with adverse event,4%
CNC(=O)c1cc(Oc2ccc(NC(=O)Nc3cc(C(C)(C)C)nn3-c3ccc4ncccc4c3)c(F)c2)ccn1,,,patients,"oral, dose not given, cycles 1 and 2, Low Cmax subgroup",,patients with nervous system disorders,18%
Cc1cc(NC2CCN(C(=O)OC3CCN(C(=O)/C=C/CN(C)C)C3)CC2)n2ncc(C(C)C)c2n1 (centres unmarked),,"Phase I dose escalation CTCAE v4.0, refers to: Hypomagnesemia",patients with advanced solid tumours,"dose not given, TIW dosing any grade",,patients with adverse event,0%
C[C@@H](c1ccc2nccn2c1)n1nnc2ncc(-c3cnn(C)c3)nc21,,refers to: treatment-related grade ≥3 Rash,EGFR-mutant MET-altered NSCLC,"oral, dose not given, all",,patients with adverse events,1%
CNC(=O)c1ccc(-c2cnc3ncc(Cc4ccc5ncccc5c4)n3n2)cc1F,,refers to: Fatigue,cancer patients,"oral, dose not given, dose escalation, grade 3-4",,patients with adverse event,8%
FC(F)(F)c1ccc(CNc2ccc(Cc3c[nH]c4ncc(Cl)cc34)cn2)cn1,,refers to: gastroesophageal reflux disease,non-TGCT solid tumour patients,"oral, 1000 mg/day, all grades",,patients with treatment-related adverse event,0%
CN(C)CCCN(C(=O)c1nc2ccccc2s1)c1nc2ccc(F)cc2s1,Trypanosoma cruzi,"reporter translation, Renilla luciferase mRNA translation",cell-free extract,40 µM,relative to: DMSO,inhibition,0.5%
CCOc1c([C@H](C)n2nc(C)c3c(N)ncnc32)cc(Cl)c(F)c1[C@@H]1CNC(=O)C1,,refers to: QTcF ≤450 ms,previously treated B-cell malignancy,"oral, 10 mg once daily, overall population",,patients,100%
Cc1ccc(C2=NN(C(=O)CCl)C(c3cccs3)C2)o1 (centres unmarked),UCHL1,"covalent, intact protein LC-MS",,12.5 µM,,labelling,16.3%
CCO[C@H]1CCN(Cc2c(OC)cc(C)c3[nH]ccc23)[C@H](c2ccc(C(=O)O)cc2)C1,,refers to: Flatulence,"PNH patients, active haemolysis","oral, 100 mg twice daily, extension phase",,patients with adverse event,0%
Cc1cc(-c2nnc(N)nc2-c2ccc(F)cc2)cc(Cl)n1,,refers to: Arthritis,"IO-naive mCRPC patients, male","oral, dose not given, treatment-related, all grades",,patients with immune-mediated AE,0%
COc1ccc([C@@H](O)c2cc(-c3ncnc4cc(N5CCOCC5)ccc34)c(F)cc2Cl)nn1,,,locally advanced rectal cancer patients,"150 mg, drug-related adverse events, with: capecitabine and radiotherapy",,patients with anemia,17%

# Some of these lines once more:
SMILES,target or system,test,test system,conditions,how to read,endpoint,value
Cc1ccc(C2=NN(C(=O)CCl)C(c3cccs3)C2)o1 (centres unmarked),UCHL1,"covalent, intact protein LC-MS",,12.5 µM,,labelling,16.3%
CCO[C@H]1CCN(Cc2c(OC)cc(C)c3[nH]ccc23)[C@H](c2ccc(C(=O)O)cc2)C1,,refers to: Flatulence,"PNH patients, active haemolysis","oral, 100 mg twice daily, extension phase",,patients with adverse event,0%
